Results of several laboratories.
Compare with care: the assays were run in different laboratories.

CC1(C)CNC(=O)c2ccccc21 — Tmax (rat, plasma; oral, 5 mg/kg, single dose): 30 min
NC(COc1ccccc1C(F)(F)F)c1ccccc1 (stereo not shown) — Tmax (male Sprague-Dawley rat, serum; intravenous, 5 mg/kg): 10.2 min
CN1CCN(c2ccc(Nc3ncc(Cl)c(Nc4ccccc4P(C)(C)=O)n3)cc2Br)CC1 — Tmax (male Sprague-Dawley rat, plasma; oral, 25 mg/kg): 54 min
Cc1cc(/C=C2\CN(C(C)C)C/C(=C\c3cc(C)c(O)c(C)c3)C2=O)cc(C)c1O — Tmax (female Sprague-Dawley rat, plasma; intravenous, 20 mg/kg): 3 min
Cc1ccc(OCC(=O)N(Cc2cccs2)c2ccn[nH]2)cc1 — Tmax (female Sprague-Dawley rat, plasma; oral, 30 mg/kg, single dose): 18.6 min
C[Si]1(C[C@H](CN)CC(=O)O)CCCC1 — Tmax (male Sprague-Dawley rat, plasma; oral, 30 mg/kg, single dose): 30 min
COc1c2c(cc3oc(CO)cc(=O)c13)O[C@H](C(C)(C)O)C2 — Tmax (male Sprague-Dawley rat, plasma; oral, 2 mg/kg): 60 min
Cc1cc(/C=C/C#N)cc(C)c1Oc1nc(NC2CCN(Cc3ccc(P(C)(C)=O)cc3)CC2)nc2ccsc12 — Tmax (male Sprague-Dawley rat, plasma; intravenous, 2 mg/kg): 0 min
CNC(=O)N[C@]1(C)CCC[C@@]2(C)C3CC[C@@]4(C)C[C@]3(CCC21)CC4=O (single isomer, unassigned) — Tmax (male Sprague-Dawley rat, plasma; oral, 2 mg/kg): 19.2 min
COc1cc2ncnc(Oc3ccc(Nc4nccc5[nH]cc(-c6ccc(F)cc6)c(=O)c45)cc3F)c2cc1OC — Tmax (male Sprague-Dawley rat, plasma; intravenous, 5 mg/kg): 1.8 min
N#Cc1cnc2cc(OCC3CCNCC3)c(F)cc2c1Nc1cc(F)c(OCc2cccc(Cl)n2)cc1Cl — Tmax (male Sprague-Dawley rat, plasma; oral, 300 mg/kg): 180 min
CC(C)(C)C(=O)Nc1ccc2[nH]c(CN3CCC(N(CCCN4CCOCC4)CC4OC(n5cnc6c(N)ncnc65)C(O)C4O)CC3)nc2c1 (stereo not shown) — Tmax (male Sprague-Dawley rat, plasma; intravenous, 20 mg/kg): 4.98 min
N=C(N)NCCC[C@H](NC(=O)[C@@H]1CCCN1C(=O)[C@H](Cc1ccccc1)NC(=O)[C@@H]1CCCN1C(=O)[C@H](Cc1c[nH]cn1)NC(=O)[C@@H](N)Cc1ccccc1)C(=O)O — Tmax (male Sprague-Dawley rat, plasma; oral, 50 mg/kg): 5 min
C[Si](C)(C)C[C@@H](CN)CC(=O)O — Tmax (male Sprague-Dawley rat, plasma; oral, 100 mg/kg, single dose): 60 min
CC12CC3CC(C)(C1)CC(NC(=O)Nc1ccc(C(=O)N4CCC[C@H](C(N)=O)C4)cc1F)(C3)C2 — Tmax (Sprague-Dawley rat, plasma; oral, 50 mg/kg): 38 min
Cn1cc(-c2cc(N3CCCCS3(=O)=O)ccc2N[C@H]2CC[C@H](C)CC2)c2cc[nH]c2c1=O (stereo in doubt) — Tmax (Sprague-Dawley rat, plasma; oral, 3 mg/kg): 30 min
CCCN(c1ccc(C(=O)NCCC(=O)O)cc1)S(=O)(=O)c1cc(C)c(-c2ccc(C(C)(C)C)cc2)c(C)c1 — Tmax (rat, plasma; oral, 5 mg/kg): 80 min
CC12CC3CC(C)(C1)CC(NC(=O)Nc1ccc(C(=O)N4CCCC(C(N)=O)C4)cc1)(C3)C2 (stereo not shown) — Tmax (Sprague-Dawley rat, plasma; oral, 10 mg/kg): 126 min
CCc1c(Cl)cccc1N1CCN(C[C@H](F)CCNC(=O)c2cc3ccccc3[nH]2)CC1 — Tmax (male Long-Evans rat, plasma; oral, 10 mg/kg): 30 min

Repeated from above:
CC1(C)CNC(=O)c2ccccc21 — Tmax (rat, plasma; oral, 5 mg/kg, single dose): 30 min
